Published values collected from several papers.
Compare with care: the assays were run in different laboratories.

| Compound | assay | system | setting | measurement | value |
| --- | --- | --- | --- | --- | --- |
| CCO[C@H]1CCN(Cc2c(OC)cc(C)c3[nH]ccc23)[C@H](c2ccc(C(=O)O)cc2)C1 | item: Headache | PNH patients, active haemolysis | oral, 200 mg twice daily, extension phase | patients with adverse event | 0% |
| C=CC(=O)Nc1cc(Nc2nccc(-c3cn(C)c4ccccc34)n2)c(OC)cc1N(C)CCN(C)C | item: treatment-related grade ≥3 Pneumonitis | EGFR-mutant MET-altered NSCLC | oral, dose not given, all | patients with adverse events | 1% |
| C[C@@H](Nc1cc(F)cc(F)c1)c1cc(C(=O)N(C)C)cc2c(=O)cc(N3CCOCC3)oc12 | CTCAE v4, item: maculopapular rash | patients with advanced solid tumours | oral, dose not given, phase I dose finding | patients discontinuing for AE | 1.6% |
| Cc1cc(-c2nnc(N)nc2-c2ccc(F)cc2)cc(Cl)n1 | item: Hypothyroidism | IO-naive mCRPC patients, male | oral, dose not given, treatment-related, all grades | patients with immune-mediated AE | 0% |
| NC(=O)N1c2ccccc2C=Cc2ccccc21 | – | male patients | oral, dose not given, treatment-related adverse events | patients with Pruritus | 7% |
| CCOc1c([C@H](C)n2nc(C)c3c(N)ncnc32)cc(Cl)c(F)c1[C@@H]1CNC(=O)C1 | item: QTcF ≤450 ms | previously treated B-cell malignancy | oral, 30 mg once daily, overall population | patients | 100% |
| C=CC(=O)NC1CCN(c2ncc3ncnc(Nc4ccc(Oc5ccc6c(c5)ncn6C)c(C)c4)c3n2)CC1 | – | male patients | oral, dose not given, treatment-related adverse events | patients with Fatigue | 6% |
| CNC(=O)c1ccc(-c2cnc3ncc(Cc4ccc5ncccc5c4)n3n2)cc1F | item: Vomiting, all grades | cancer patients | oral, 600 mg twice daily, expansion cohort, any causality | patients with adverse event | 29% |
| CNC(=O)c1cc(Oc2ccc(NC(=O)Nc3cc(C(C)(C)C)nn3-c3ccc4ncccc4c3)c(F)c2)ccn1 | – | patients | oral, dose not given, cycles 1 and 2, Medium Cmax subgroup | patients with grade 1 musculoskeletal disorders | 7% |
| COc1cc(Nc2ncc3c(n2)-c2ccc(Cl)cc2C(c2c(F)cccc2OC)=NC3)ccc1C(=O)O | – | cancer patients | oral, dose not given, grade 3 any attribution, together with: pembrolizumab | patients with dry skin | 4% |
| Cc1cc(NC2CCN(C(=O)OC3CCN(C(=O)/C=C/CN(C)C)C3)CC2)n2ncc(C(C)C)c2n1 (stereo not shown) | – | patients with advanced solid tumours | dose not given, TIW arm, grade 3 or higher | patients with adverse events | 27% |
| O=C(Nc1nc2cccc(-c3ccc(CN4CCS(=O)(=O)CC4)cc3)n2n1)C1CC1 | – | rheumatoid arthritis patients | oral, 100 mg twice daily, 4 weeks, regardless of relatedness | patients with arthropod sting allergy | 0% |
| COc1ccc([C@@H](O)c2cc(-c3ncnc4cc(N5CCOCC5)ccc34)c(F)cc2Cl)nn1 | item: Proctitis | locally advanced rectal cancer patients | dose not given, all dose groups, together with: capecitabine plus radiotherapy | patients with TEAE | 47% |

For quick reference, copied from above:
| Compound | assay | system | setting | measurement | value |
| --- | --- | --- | --- | --- | --- |
| CCOc1c([C@H](C)n2nc(C)c3c(N)ncnc32)cc(Cl)c(F)c1[C@@H]1CNC(=O)C1 | item: QTcF ≤450 ms | previously treated B-cell malignancy | oral, 30 mg once daily, overall population | patients | 100% |
